{"data": "Experimental data from different studies", "note": "Each numbered part is a random draw from the data of one study; scales do not carry over between parts. Values joined by “and” are separate records of one study, mostly repeats; a detail may differ.", "UniProt P10721, sequence (whole entry, unmodified, looked up)": "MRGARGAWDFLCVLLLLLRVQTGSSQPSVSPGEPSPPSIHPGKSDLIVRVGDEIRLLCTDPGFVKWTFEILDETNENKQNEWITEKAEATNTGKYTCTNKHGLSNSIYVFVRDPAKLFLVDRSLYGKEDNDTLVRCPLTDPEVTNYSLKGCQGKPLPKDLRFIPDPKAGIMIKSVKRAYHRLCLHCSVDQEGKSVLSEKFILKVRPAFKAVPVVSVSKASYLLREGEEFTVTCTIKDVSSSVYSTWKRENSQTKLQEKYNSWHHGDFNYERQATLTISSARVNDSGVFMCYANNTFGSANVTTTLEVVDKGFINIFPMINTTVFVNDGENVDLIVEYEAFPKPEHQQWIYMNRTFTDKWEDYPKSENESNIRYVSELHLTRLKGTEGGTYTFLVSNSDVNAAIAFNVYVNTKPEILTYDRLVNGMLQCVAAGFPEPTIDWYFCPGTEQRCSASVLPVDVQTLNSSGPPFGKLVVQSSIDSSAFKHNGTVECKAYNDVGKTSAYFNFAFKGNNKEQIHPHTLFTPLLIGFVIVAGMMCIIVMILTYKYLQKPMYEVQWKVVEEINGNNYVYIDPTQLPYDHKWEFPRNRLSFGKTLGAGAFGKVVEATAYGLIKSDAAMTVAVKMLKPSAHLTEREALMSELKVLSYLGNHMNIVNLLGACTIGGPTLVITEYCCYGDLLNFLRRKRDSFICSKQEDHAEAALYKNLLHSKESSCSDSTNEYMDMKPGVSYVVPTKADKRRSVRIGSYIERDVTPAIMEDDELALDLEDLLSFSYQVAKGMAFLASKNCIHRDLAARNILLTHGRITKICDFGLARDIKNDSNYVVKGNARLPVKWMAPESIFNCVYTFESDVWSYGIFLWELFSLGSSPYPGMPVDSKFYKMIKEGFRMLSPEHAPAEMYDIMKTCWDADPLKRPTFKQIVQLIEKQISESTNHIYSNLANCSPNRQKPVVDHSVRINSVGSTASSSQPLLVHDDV", "UniProt P42336, sequence (whole entry, unmodified, looked up)": "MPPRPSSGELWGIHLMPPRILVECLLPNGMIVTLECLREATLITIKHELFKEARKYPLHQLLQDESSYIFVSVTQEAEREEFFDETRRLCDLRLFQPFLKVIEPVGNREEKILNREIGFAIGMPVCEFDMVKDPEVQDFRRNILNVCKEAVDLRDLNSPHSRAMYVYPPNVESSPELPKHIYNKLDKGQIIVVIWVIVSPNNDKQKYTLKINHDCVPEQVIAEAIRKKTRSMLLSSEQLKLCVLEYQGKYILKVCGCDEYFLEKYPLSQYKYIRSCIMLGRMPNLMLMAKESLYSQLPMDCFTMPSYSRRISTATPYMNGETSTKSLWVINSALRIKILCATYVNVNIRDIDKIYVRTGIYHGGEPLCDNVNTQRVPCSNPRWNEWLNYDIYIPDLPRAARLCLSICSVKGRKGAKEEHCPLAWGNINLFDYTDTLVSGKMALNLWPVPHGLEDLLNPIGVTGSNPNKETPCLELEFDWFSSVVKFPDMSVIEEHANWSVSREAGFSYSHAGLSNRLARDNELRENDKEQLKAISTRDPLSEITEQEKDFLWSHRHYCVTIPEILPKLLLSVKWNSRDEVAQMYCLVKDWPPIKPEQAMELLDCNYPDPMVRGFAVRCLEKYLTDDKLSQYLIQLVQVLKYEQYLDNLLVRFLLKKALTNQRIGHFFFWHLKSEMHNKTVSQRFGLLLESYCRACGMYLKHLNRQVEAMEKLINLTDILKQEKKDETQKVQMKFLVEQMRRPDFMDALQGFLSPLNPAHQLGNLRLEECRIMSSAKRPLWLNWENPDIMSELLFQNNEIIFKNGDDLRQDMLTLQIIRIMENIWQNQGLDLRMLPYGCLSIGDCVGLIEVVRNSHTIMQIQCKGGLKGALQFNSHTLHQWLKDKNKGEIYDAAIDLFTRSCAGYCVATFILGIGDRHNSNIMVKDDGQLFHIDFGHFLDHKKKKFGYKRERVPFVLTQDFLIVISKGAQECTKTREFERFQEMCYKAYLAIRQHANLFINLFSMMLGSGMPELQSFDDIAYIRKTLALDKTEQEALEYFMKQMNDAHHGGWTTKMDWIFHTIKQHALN", "UniProt P15056, sequence (whole entry, unmodified, looked up)": "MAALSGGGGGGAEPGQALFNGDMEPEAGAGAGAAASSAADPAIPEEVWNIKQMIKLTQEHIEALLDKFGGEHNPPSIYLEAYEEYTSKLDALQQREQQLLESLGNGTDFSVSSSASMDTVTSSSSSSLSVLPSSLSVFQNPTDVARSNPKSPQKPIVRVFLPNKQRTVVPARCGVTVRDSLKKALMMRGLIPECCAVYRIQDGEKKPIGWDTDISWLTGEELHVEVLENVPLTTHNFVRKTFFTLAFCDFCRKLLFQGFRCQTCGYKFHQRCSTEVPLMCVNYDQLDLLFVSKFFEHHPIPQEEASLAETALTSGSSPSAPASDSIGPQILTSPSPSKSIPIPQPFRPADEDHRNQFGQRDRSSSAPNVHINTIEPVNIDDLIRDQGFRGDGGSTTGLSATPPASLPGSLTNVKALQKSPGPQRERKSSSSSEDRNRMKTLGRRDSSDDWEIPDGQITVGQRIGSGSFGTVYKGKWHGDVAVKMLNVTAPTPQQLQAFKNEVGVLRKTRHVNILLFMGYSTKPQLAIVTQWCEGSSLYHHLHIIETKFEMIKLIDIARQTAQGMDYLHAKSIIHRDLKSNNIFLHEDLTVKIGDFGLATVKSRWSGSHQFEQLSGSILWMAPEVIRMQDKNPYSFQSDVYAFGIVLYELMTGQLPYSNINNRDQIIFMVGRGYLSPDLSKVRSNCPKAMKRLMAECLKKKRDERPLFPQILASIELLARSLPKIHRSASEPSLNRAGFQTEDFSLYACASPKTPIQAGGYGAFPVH", "UniProt P36894, sequence (whole entry, looked up)": "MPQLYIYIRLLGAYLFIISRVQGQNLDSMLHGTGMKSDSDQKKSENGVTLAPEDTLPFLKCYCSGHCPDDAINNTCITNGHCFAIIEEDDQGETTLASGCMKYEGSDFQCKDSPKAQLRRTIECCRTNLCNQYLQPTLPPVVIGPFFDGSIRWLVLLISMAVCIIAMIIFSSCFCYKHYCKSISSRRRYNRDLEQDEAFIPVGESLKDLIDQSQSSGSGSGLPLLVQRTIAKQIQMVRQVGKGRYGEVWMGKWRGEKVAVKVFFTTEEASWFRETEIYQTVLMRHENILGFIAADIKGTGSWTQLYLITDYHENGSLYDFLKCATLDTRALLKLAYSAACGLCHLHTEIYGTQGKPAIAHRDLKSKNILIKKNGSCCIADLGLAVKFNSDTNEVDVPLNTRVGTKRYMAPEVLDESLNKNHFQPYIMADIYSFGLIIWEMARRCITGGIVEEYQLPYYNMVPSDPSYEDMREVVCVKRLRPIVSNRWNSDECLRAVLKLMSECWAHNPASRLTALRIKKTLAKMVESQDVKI", "UniProt O75460, sequence (whole entry, looked up)": "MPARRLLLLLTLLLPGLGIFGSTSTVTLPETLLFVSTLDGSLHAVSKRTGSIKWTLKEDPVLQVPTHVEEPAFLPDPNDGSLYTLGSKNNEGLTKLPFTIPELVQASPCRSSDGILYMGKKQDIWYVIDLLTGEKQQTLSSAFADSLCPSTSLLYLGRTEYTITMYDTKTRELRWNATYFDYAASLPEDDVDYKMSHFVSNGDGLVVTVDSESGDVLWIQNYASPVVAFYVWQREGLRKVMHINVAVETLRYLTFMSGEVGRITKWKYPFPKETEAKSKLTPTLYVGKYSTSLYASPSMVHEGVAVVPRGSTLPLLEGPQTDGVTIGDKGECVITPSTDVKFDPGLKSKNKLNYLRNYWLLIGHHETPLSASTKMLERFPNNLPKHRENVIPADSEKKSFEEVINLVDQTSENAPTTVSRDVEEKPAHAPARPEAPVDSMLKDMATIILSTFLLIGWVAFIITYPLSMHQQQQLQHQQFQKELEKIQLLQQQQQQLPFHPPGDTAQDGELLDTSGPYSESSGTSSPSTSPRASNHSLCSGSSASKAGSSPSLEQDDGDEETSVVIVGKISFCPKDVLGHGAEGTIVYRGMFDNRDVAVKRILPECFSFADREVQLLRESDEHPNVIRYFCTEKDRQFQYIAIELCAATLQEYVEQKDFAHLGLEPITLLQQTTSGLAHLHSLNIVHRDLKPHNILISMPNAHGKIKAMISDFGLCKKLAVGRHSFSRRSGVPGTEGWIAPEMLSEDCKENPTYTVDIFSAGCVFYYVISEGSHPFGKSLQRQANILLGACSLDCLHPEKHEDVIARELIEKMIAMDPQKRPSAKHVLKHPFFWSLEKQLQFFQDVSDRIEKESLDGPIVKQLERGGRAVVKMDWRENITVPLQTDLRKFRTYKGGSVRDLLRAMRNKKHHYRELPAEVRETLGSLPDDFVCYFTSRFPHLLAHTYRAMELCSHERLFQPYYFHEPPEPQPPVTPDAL", "UniProt Q9UIK4, sequence (whole entry, looked up)": "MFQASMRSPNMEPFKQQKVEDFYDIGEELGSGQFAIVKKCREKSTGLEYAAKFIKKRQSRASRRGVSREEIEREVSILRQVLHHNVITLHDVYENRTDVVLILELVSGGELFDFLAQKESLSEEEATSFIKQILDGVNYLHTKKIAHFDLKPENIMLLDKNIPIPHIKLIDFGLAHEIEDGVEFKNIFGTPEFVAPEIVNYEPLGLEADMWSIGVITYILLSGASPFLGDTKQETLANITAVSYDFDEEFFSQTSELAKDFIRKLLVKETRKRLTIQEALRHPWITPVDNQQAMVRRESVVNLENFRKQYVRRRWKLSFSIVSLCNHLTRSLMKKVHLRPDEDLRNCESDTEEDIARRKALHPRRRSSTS"}
{"data": "Set 1", "Structure (SMILES)": "CSc1cccnc1N1CCN(Cc2nc3ccccc3[nH]2)CC1", "tested at": "1 µM"}
{"target": "MAP4K3 (Homo sapiens, UniProt Q8IVH8)", "assay": "cell-free assay, competition with immobilised ligand", "remaining binding": "100%"}
{"target": "DAPK2 (Homo sapiens, UniProt Q9UIK4)", "assay": "cell-free assay, competition with immobilised ligand", "remaining binding": "100%"}
{"target": "STK38L (Homo sapiens, UniProt Q9Y2H1)", "assay": "binding, competition with immobilised ligand", "remaining binding": "100%"}
{"target": "ABL1 (Homo sapiens, UniProt P00519, F317I)", "assay": "KINOMEscan", "setting": "F317I mutant, phosphorylated", "scale": "relative to: control", "remaining binding": "74%"}
{"target": "BMPR1A (Homo sapiens, UniProt P36894)", "assay": "binding, competition with immobilised ligand", "remaining binding": "100%"}
{"target": "PRKACB (Homo sapiens, UniProt P22694)", "assay": "cell-free assay, competition with immobilised ligand", "remaining binding": "100%"}
{"target": "PAK5 (Homo sapiens, UniProt Q9P286)", "assay": "cell-free assay, competition with immobilised ligand", "remaining binding": "97%"}
{"target": "RET (Homo sapiens, UniProt P07949, V804M)", "assay": "cell-free assay, competition with immobilised ligand", "remaining binding": "100%"}
{"target": "TYRO3 (Homo sapiens, UniProt Q06418)", "assay": "cell-free assay, competition with immobilised ligand", "remaining binding": "100%"}
{"target": "GSK3A (Homo sapiens, UniProt P49840)", "assay": "cell-free assay, competition with immobilised ligand", "remaining binding": "100%"}
{"target": "PIK3CB (Homo sapiens, UniProt P42338)", "assay": "cell-free assay, competition with immobilised ligand", "remaining binding": "74%"}
{"target": "BRAF (Homo sapiens, UniProt P15056, V600E)", "assay": "cell-free assay, competition with immobilised ligand", "remaining binding": "85%"}
{"target": "PIP5K1A (Homo sapiens, UniProt Q99755)", "assay": "cell-free assay, competition with immobilised ligand", "remaining binding": "96%"}
{"target": "CSNK1G2 (Homo sapiens, UniProt P78368)", "assay": "cell-free assay, competition with immobilised ligand", "remaining binding": "99%"}
{"target": "PKMYT1 (Homo sapiens, UniProt Q99640)", "assay": "cell-free assay, competition with immobilised ligand", "remaining binding": "100%"}
{"target": "MAP3K5 (Homo sapiens, UniProt Q99683)", "assay": "cell-free assay, competition with immobilised ligand", "remaining binding": "98%"}
{"target": "LATS1 (Homo sapiens, UniProt O95835)", "assay": "cell-free assay, competition with immobilised ligand", "remaining binding": "100%"}
{"target": "BRAF (Homo sapiens, UniProt P15056)", "assay": "cell-free assay, competition with immobilised ligand", "remaining binding": "89%"}
{"target": "STK24 (Homo sapiens, UniProt Q9Y6E0)", "assay": "cell-free assay, competition with immobilised ligand", "remaining binding": "100%"}
{"target": "GRK2 (Homo sapiens, UniProt P25098)", "assay": "cell-free assay, competition with immobilised ligand", "remaining binding": "93%"}
{"target": "EPHB6 (Homo sapiens, UniProt O15197)", "assay": "cell-free assay, competition with immobilised ligand", "remaining binding": "89%"}
{"target": "PIK3CA (Homo sapiens, UniProt P42336, E545K)", "assay": "cell-free assay, competition with immobilised ligand", "remaining binding": "74%"}
{"target": "EGFR (Homo sapiens, UniProt P00533, G719C)", "assay": "cell-free assay, competition with immobilised ligand", "remaining binding": "96%"}
{"target": "EPHA2 (Homo sapiens, UniProt P29317)", "assay": "cell-free assay, competition with immobilised ligand", "remaining binding": "100%"}
{"target": "STK32C (Homo sapiens, UniProt Q86UX6)", "assay": "binding, competition with immobilised ligand", "remaining binding": "71%"}
{"data": "Set 2", "host": "human", "medium": "microsomes or S9", "tested at": "2 µM", "time": "0.5 h"}
{"Compound": "COc1cc(=O)n(C)cc1C(=O)N1CCC(n2cc(-c3ccccc3)nn2)C1 (stereo not drawn)", "remaining compound [%]": 82.9}
{"Compound": "CCOc1ccc(-c2c(C)n[nH]c2NC(=O)c2cc(OC)cc(OC)c2)cc1OCC", "remaining compound [%]": 50.5}
{"Compound": "Nc1ccc(Sc2nccc(-c3cccs3)n2)cc1", "remaining compound [%]": "> 99"}
{"Compound": "CCCS(=O)(=O)c1nc2ccc(NS(=O)(=O)Cc3ccccc3)cc2s1", "remaining compound [%]": 69.7}
{"Compound": "CCN(CC)S(=O)(=O)c1ccc(S(=O)(=O)NC(C)c2nncn2C)cc1 (stereo not drawn)", "remaining compound [%]": "> 99"}
{"Compound": "COc1ccccc1N1C(=O)c2c(NC(C)=O)c3cc(F)ccc3n2CC1(C)C(=O)NC1CCCC1 (stereo not drawn)", "remaining compound [%]": 24.2}
{"Compound": "O=c1[nH]c(N2CCCCC2)nc2ncc3c(c12)-c1ccccc1C3", "remaining compound [%]": 9.61}
{"Compound": "CCC(C)c1ccc(O)c(NC(=O)c2nccnc2C(=O)O)c1 (stereo not drawn)", "remaining compound [%]": 96.5}
{"Compound": "COC(=O)c1cc(OC)c(OC)cc1NC(=O)c1c(Br)cnn1C", "remaining compound [%]": 12.3}
{"data": "Set 3", "Structure (SMILES)": "C=C(F)C(=O)N1CCN(c2nc(OC[C@@H]3CCCN3C)nc3c2CCN(c2cccc4cccc(Cl)c24)C3)C[C@@H]1CC#N", "target": "GTPase HRas (HRAS, Homo sapiens, UniProt P01112)", "observed": "binding", "mode": "competitor", "method": "NanoBRET", "cells": "HEK293"}
{"setting": "6.67 µM", "normalized BRET": "140% and 144%"}
{"setting": "9.77 nM", "normalized BRET": "92.7%"}
{"setting": "10 µM", "normalized BRET": "123%"}
{"setting": "38.1 pM", "normalized BRET": "93.7%"}
{"setting": "247 nM", "normalized BRET": "92.7% and 96.6%"}
{"data": "Set 4", "SMILES": "Cc1ccc(NC(=O)c2ccnc(C(F)(F)F)c2)cc1-c1cc(OCCO)nc(N2CCOCC2)c1"}
{"target": "ERN1 (Homo sapiens, UniProt O75460)", "assay": "binding", "setting": "1 µM", "remaining binding [%]": 71}
{"target": "PIK3CA (Homo sapiens, UniProt P42336, I800L)", "assay": "binding", "setting": "1 µM", "remaining binding [%]": 88}
{"target": "LIM domain kinase 1 (LIMK1, Homo sapiens, UniProt P53667)", "assay": "binding, competition with immobilised ligand", "setting": "1 µM", "remaining binding [%]": 92}
{"target": "ACVR2A (Homo sapiens, UniProt P27037)", "assay": "binding, competition with immobilised ligand", "setting": "1 µM", "remaining binding [%]": 90}
{"target": "KIT (Homo sapiens, UniProt P10721, D816V)", "assay": "binding", "setting": "1 µM", "remaining binding [%]": 70}
{"target": "CDC42BPG (Homo sapiens, UniProt Q6DT37)", "assay": "DiscoverX cell-free binding", "setting": "1000 nM", "remaining binding [%]": 81}
{"target": "KIT (Homo sapiens, UniProt P10721)", "assay": "binding, competition with immobilised ligand", "setting": "1 µM", "remaining binding [%]": 92}
{"target": "WNK3 (Homo sapiens, UniProt Q9BYP7)", "assay": "binding", "setting": "1 µM", "remaining binding [%]": 70}
{"data": "Set 5", "cell line": "mouse MPNST tumor cells", "method": "high-content nuclear imaging", "refers to": "cell number", "tested at": "10 µM", "time": "12 h", "notes": "mean of 2 replicates", "relative to": "plate mean", "reading": "higher = more cells"}
{"SMILES": "Cc1c(C)c2c(c(C)c1O)CCC(C)(COc1ccc(CC3SC(=O)NC3=O)cc1)O2 (stereo not drawn)", "nuclei count": "1.14 z-score and 2.7 z-score"}
{"SMILES": "Cc1nc2n(c(=O)c1CCN1CCC(c3noc4cc(F)ccc34)CC1)CCCC2", "nuclei count": "2.52 z-score and 1.31 z-score"}
{"SMILES": "O=C(NCCCCCCNC(=O)ON=C1CCCCC1)ON=C1CCCCC1", "nuclei count": "0.191 z-score"}
{"SMILES": "CCn1cc(C(=O)O)c(=O)c2cc(F)c(N3CCNCC3)cc21", "nuclei count": "1.52 z-score"}
{"SMILES": "CNC[C@H](O)c1cccc(O)c1", "nuclei count": "1.38 z-score"}
{"SMILES": "CC(C)C(=O)SCCCCC[C@H](NC(=O)OC(C)(C)C)C(=O)NC12CC3CC(CC(C3)C1)C2", "nuclei count": "-0.238 z-score"}
{"SMILES": "CN(C)c1ccccc1CN1CCCN(Cc2ccccc2N(C)C)C1c1ccncc1", "nuclei count": "-3.54 z-score"}
{"note": "Some of these lines once more (set 1):"}
{"target": "RET (Homo sapiens, UniProt P07949, V804M)", "assay": "cell-free assay, competition with immobilised ligand", "remaining binding": "100%"}
{"target": "TYRO3 (Homo sapiens, UniProt Q06418)", "assay": "cell-free assay, competition with immobilised ligand", "remaining binding": "100%"}
{"target": "GSK3A (Homo sapiens, UniProt P49840)", "assay": "cell-free assay, competition with immobilised ligand", "remaining binding": "100%"}
{"target": "PIK3CB (Homo sapiens, UniProt P42338)", "assay": "cell-free assay, competition with immobilised ligand", "remaining binding": "74%"}
{"target": "BRAF (Homo sapiens, UniProt P15056, V600E)", "assay": "cell-free assay, competition with immobilised ligand", "remaining binding": "85%"}
{"target": "PIP5K1A (Homo sapiens, UniProt Q99755)", "assay": "cell-free assay, competition with immobilised ligand", "remaining binding": "96%"}
{"target": "CSNK1G2 (Homo sapiens, UniProt P78368)", "assay": "cell-free assay, competition with immobilised ligand", "remaining binding": "99%"}
